Results from different studies.
Lines come from different studies, so protocols differ. ± marks the error that the study gave.
Cell line: HepG2

With `CCOC(=O)/C=C1\S/C(=N\N=C\c2cccc3cc4ccccc4nc23)N(c2ccc(F)cc2)C1=O` the IC50 was greater than 50 µM (cell growth or viability, MTT; 48 h).
`COC(OC)c1ccc(-c2ccc(O)cc2)c(C(=C2C=CC(=O)C=C2)c2ccc(O)cc2)c1C#Cc1ccc(O)cc1` gave an IC50 of greater than 50 µM (cell growth or viability, MTT; 48 h).
For `CCOC(=O)/C=C1\S/C(=N\N=C\c2cccc3cc4ccccc4nc23)N(c2ccc([N+](=O)[O-])cc2)C1=O`, the IC50 was greater than 50 µM (cell growth or viability, MTT; 48 h).
For `OC[C@H]1O[C@@](CO)(O[C@H]2O[C@H](CO)[C@@H](O)[C@H](O)[C@H]2O)[C@@H](O)[C@@H]1O`, the IC50 was greater than 10 µM (cell growth or viability).
The IC50 of `O=C1C=C(O)C(=O)c2ccccc21` is reported as 248 µM (cell growth or viability, MTT).
With `O=Cc1ccc2c(c1C#Cc1ccc(O)cc1)C(c1ccc(O)cc1)(c1ccc(O)cc1)c1cc(O)ccc1-2` the IC50 was greater than 50 µM (cell growth or viability, MTT; 48 h).
For `CCCCN(C)CC(O)Cn1c2ccc(Br)cc2c2cc(Br)ccc21` (centres unmarked), the IC50 was 2.61 µM (cell growth or viability).
With `CCCN1C(=O)/C(=C/C(=O)OCC)S/C1=N\N=C\c1cccc2cc3ccccc3nc12` the IC50 was greater than 50 µM (cell growth or viability, MTT; 48 h).
For `[Co+2].[O-]c1c(I)cc(I)c2cccnc12.[O-]c1c(I)cc(I)c2cccnc12.c1cnc2c(c1)ccc1cccnc12`, the IC50 was 40.1 µM (cell growth or viability, MTT; 48 h).
`CCOC(=O)/C=C1\S/C(=N\N=C\c2cccc3cc4ccccc4nc23)N(c2cccc(OC)c2)C1=O` has an IC50 of greater than 50 µM (cell growth or viability, MTT; 48 h).
`Nc1nc(=O)n(C2CC(O)C(CO)O2)cc1F` (centres unmarked) gave an IC50 of greater than 10 µM (cell growth or viability).
`Cc1ccc(C(C)C)cc1.Cc1ccc(C(C)C)cc1.Cc1ccc(C(C)C)cc1.Cc1ccc(C(C)C)cc1.O=S(=O)(O)C(F)(F)F.O=S(=O)(O)C(F)(F)F.O=S(=O)(O)C(F)(F)F.O=S(=O)(O)C(F)(F)F.c1ccc2c3c4ccccc4c(c2c1)-c1cn(nn1)-c1cc[n+](cc1)[Ru-]1[O]c2c4ccccc4c4c5c(c6ccccc6c(c25)=[O+]1)=[O+][Ru-]([O]4)[n+]1ccc(cc1)-n1cc(nn1)-c1c2ccccc2c(c2ccccc12)-c1cn(nn1)-c1cc[n+](cc1)[Ru-]1[O]c2c4ccccc4c4c5c(c6ccccc6c(c25)=[O+]1)=[O+][Ru-]([O]4)[n+]1ccc(cc1)-n1cc-3nn1` has an IC50 of 4.5 µM (cell growth or viability, MTT; 24 h).
For `Cc1ccnc(-c2cc(C)ccn2)c1`, the IC50 was greater than 50 µM (cell growth or viability, MTT; 48 h).
For `Cc1ccc(C(C)C)cc1.Cc1ccc(C(C)C)cc1.Cc1ccc(C(C)C)cc1.Cc1ccc(C(C)C)cc1.O=S(=O)(O)C(F)(F)F.O=S(=O)(O)C(F)(F)F.O=S(=O)(O)C(F)(F)F.O=S(=O)(O)C(F)(F)F.c1ccc2c3c4ccccc4c(c2c1)-c1cn(nn1)-c1cc[n+](cc1)[Ru-]1[O]c2cc4c(cc2=[O+]1)[O][Ru-]([O+]=4)[n+]1ccc(cc1)-n1cc(nn1)-c1c2ccccc2c(c2ccccc12)-c1cn(nn1)-c1cc[n+](cc1)[Ru-]1[O]c2cc4c(cc2=[O+]1)[O][Ru-]([O+]=4)[n+]1ccc(cc1)-n1cc-3nn1`, the IC50 was greater than 20 µM (cell growth or viability, MTT; 24 h).
The IC50 of `O=S(=O)(c1ccc2c(c1)OCO2)n1cc(CCCCN2CCC(=C(c3ccc(F)c(F)c3)c3ccc(F)c(F)c3)CC2)nn1` is reported as 2.65 µM (cell growth or viability, ATP luminescence; 48 h).
With `COc1ccc(OC)c2c1CN(c1cn[nH]c(=O)c1Cl)CC2O` (centres unmarked) the IC50 was greater than 50 µM (cytotoxicity, MTT).
For `O=C1O[C@H]([C@@H](O)CO)C(O)=C1O[C@H]1O[C@H](CO)[C@@H](O)[C@H](O)[C@H]1O`, the IC50 was greater than 10 µM (cell growth or viability).
`COc1ccnc(-c2cc(OC)ccn2)c1.Cc1ccc2c(Cl)cc(Cl)c([O-])c2n1.Cc1ccc2c(Cl)cc(Cl)c([O-])c2n1.[Co+2]` has an IC50 of 7.09 µM (cell growth or viability, MTT; 48 h).
The IC50 of `CNS(=O)(=O)Nc1nccc(Cc2c(C)c3ccc(Oc4ncccc4F)cc3oc2=O)c1F` is reported as 0.00472 µM (cell viability, CellTiter-Glo; 7 days).
The IC50 of `Oc1ccc(C#Cc2cccc3c2C(c2ccc(O)cc2)(c2ccc(O)cc2)c2cc(O)ccc2-3)cc1` is reported as 12.5 µM (cell growth or viability, MTT; 48 h).
`CCCCCCC(=O)[O][Pt]([NH2])([NH2])([Cl])([Cl])[O]C(=O)CCC(C)C1CCC2C3CCC4CC(O)CCC4(C)C3CCC12C` (centres unmarked) has an IC50 of 0.95 ± 0.05 µM (cell viability, MTT; 72 h).
With `O=C(Nc1ccc(F)cc1)NC1CCN(c2ncnc3nc[nH]c23)C1` (centres unmarked) the IC50 was greater than 50 µM (cytotoxicity, MTT).
For `CCCCCCCCCCCCCCCCCC(=O)[O][Pt-2]1([OH])([Cl])([NH+]=C(CC)N(C)CCNc2c3ccccc3[nH+]c3ccccc23)[NH]CCC[NH]1.O=[N+]([O-])O.O=[N+]([O-])O`, the IC50 was 0.207 µM (cell growth or viability, MTS; 72 h).
For `c1ccc(-c2ccnc3c2ccc2c(-c4ccccc4)ccnc23)cc1`, the IC50 was greater than 50 µM (cell growth or viability, MTT; 48 h).
`Oc1cccc2c1[nH]c1c(C3=CC4(O)CCC=CCCCCN5CCC3C3(CC6C=CCCCCN6C43)C5)nccc12` (single isomer, unassigned; (+)) gave an IC50 of 0.51 µg/mL (cell growth or viability, neutral red; 48 h).
`COc1ccc(N2C(=O)CS/C2=N\N=C\c2cccc3cc4ccccc4nc23)cc1` gave an IC50 of 42.7 µM (cell growth or viability, MTT; 48 h).
For `NC1=C(Cl)C(=O)c2cccc([N+](=O)[O-])c2C1=O`, the IC50 was 11.2 µM (cell growth or viability, MTT).
`Cc1ccc(-c2ccc(C)cn2)nc1.[Co+2].[O-]c1c(I)cc(Cl)c2cccnc12.[O-]c1c(I)cc(Cl)c2cccnc12` gave an IC50 of 23.6 µM (cell growth or viability, MTT; 48 h).
The IC50 of `CNC(=O)C1CCCN(C(=O)C2CC3CCC2N3C(=O)[C@@H]2C[C@@H](O)CN2C(=O)NCc2cccc(Cl)c2F)C1` (mixture of isomers) is reported as 0.6 µM (cell growth or viability, CCK-8; 72 h).
`NC[C@H]1O[C@H](O[C@H]2[C@H](O)[C@@H](O[C@H]3O[C@H](CO)[C@@H](O)[C@H](N)[C@H]3O)[C@H](N)C[C@@H]2N)[C@H](N)C[C@@H]1O` gave an IC50 of greater than 10 µM (cell growth or viability).
`Cc1nc(CN(C)c2ncnc3c2cnn3CCO)cs1` gave an IC50 of greater than 50 µM (cytotoxicity, MTT).
With `COc1ccc2c(c1)/C(=N/NC(N)=S)C(=O)N2CCn1cnc2c(N)ncnc21` the IC50 was 6.03 µM (cell growth or viability, SRB).
With `NC(=O)c1nccn([C@@H]2O[C@H](CO)[C@@H](O)[C@H]2O)c1=O` the IC50 was greater than 10 µM (cell growth or viability).
The IC50 of `CCC(=[NH+][Pt-2]1([Cl])([O]C(C)=O)([O]C(C)=O)[NH]CCC[NH]1)N(C)CCNc1c2ccccc2[nH+]c2ccccc12.O=[N+]([O-])O.O=[N+]([O-])O` is reported as 0.04 µM (cell growth or viability, MTS; 72 h).
`O=C1C(=NN=c2[nH]ccs2)c2cc(Cl)ccc2N1CCn1ncc2c(=O)[nH]cnc21` has an IC50 of 0.77 µg/mL (cell growth or viability, SRB; 72 h).
`CCN(CC)CCOC(=O)c1ccc(NC2OC(CO)C(O)C(O)C2O)cc1` (centres unmarked) has an IC50 of greater than 10 µM (cell growth or viability).
`CCOc1cncc(-c2ccc(NC(=O)C3(c4ccnc(NS(=O)(=O)C5CC5)n4)CCOCC3)nc2)n1` has an IC50 of 10 µM (cell growth, CellTiter-Glo; 72 h).
`Cc1ccc2c(Br)cc(Br)c([O-])c2n1.Cc1ccc2c(Br)cc(Br)c([O-])c2n1.[Co+2].c1cnc2c(c1)ccc1cccnc12` has an IC50 of 11 µM (cell growth or viability, MTT; 48 h).
With `O=C1CS/C(=N\N=C\c2cccc3cc4ccccc4nc23)N1c1ccc([N+](=O)[O-])cc1` the IC50 was greater than 50 µM (cell growth or viability, MTT; 48 h).
`Clc1ccnc2c1ccc1c(Cl)ccnc12.[Co+2].[O-]c1c(I)cc(I)c2cccnc12.[O-]c1c(I)cc(I)c2cccnc12` has an IC50 of 38.1 µM (cell growth or viability, MTT; 48 h).
For `CCOC(=O)/C=C1\S/C(=N\N=C\c2cccc3cc4ccccc4nc23)N(CC(C)C)C1=O`, the IC50 was greater than 50 µM (cell growth or viability, MTT; 48 h).
With `NC(=O)c1ccc(-c2ccccc2Cl)c2c3c([nH]c12)CC[C@H](N)C3` the IC50 was 0.0193 µM (cell growth or viability).
With `CCCCCCCC/C=C/CCCCCCCC(=O)[O][Pt-2]1([OH])([Cl])([NH+]=C(CC)N(C)CCNc2c3ccccc3[nH+]c3ccccc23)[NH]CCC[NH]1.O=[N+]([O-])O.O=[N+]([O-])O` the IC50 was 0.16 µM (cell growth or viability, MTS; 72 h).
The IC50 of `CCOC(=O)/C=C1\S/C(=N\N=C\c2cccc3cc4ccccc4nc23)N(C)C1=O` is reported as greater than 50 µM (cell growth or viability, MTT; 48 h).

For quick reference, copied from above:
For `O=C1O[C@H]([C@@H](O)CO)C(O)=C1O[C@H]1O[C@H](CO)[C@@H](O)[C@H](O)[C@H]1O`, the IC50 was greater than 10 µM (cell growth or viability).
The IC50 of `CCOC(=O)/C=C1\S/C(=N\N=C\c2cccc3cc4ccccc4nc23)N(C)C1=O` is reported as greater than 50 µM (cell growth or viability, MTT; 48 h).
`COC(OC)c1ccc(-c2ccc(O)cc2)c(C(=C2C=CC(=O)C=C2)c2ccc(O)cc2)c1C#Cc1ccc(O)cc1` gave an IC50 of greater than 50 µM (cell growth or viability, MTT; 48 h).
The IC50 of `Oc1ccc(C#Cc2cccc3c2C(c2ccc(O)cc2)(c2ccc(O)cc2)c2cc(O)ccc2-3)cc1` is reported as 12.5 µM (cell growth or viability, MTT; 48 h).
For `CCCCCCCCCCCCCCCCCC(=O)[O][Pt-2]1([OH])([Cl])([NH+]=C(CC)N(C)CCNc2c3ccccc3[nH+]c3ccccc23)[NH]CCC[NH]1.O=[N+]([O-])O.O=[N+]([O-])O`, the IC50 was 0.207 µM (cell growth or viability, MTS; 72 h).
`CCOc1cncc(-c2ccc(NC(=O)C3(c4ccnc(NS(=O)(=O)C5CC5)n4)CCOCC3)nc2)n1` has an IC50 of 10 µM (cell growth, CellTiter-Glo; 72 h).
With `CCOC(=O)/C=C1\S/C(=N\N=C\c2cccc3cc4ccccc4nc23)N(c2ccc(F)cc2)C1=O` the IC50 was greater than 50 µM (cell growth or viability, MTT; 48 h).
